Results pooled from the literature.
Values joined by “and” are separate records of one study, mostly repeats; a detail may differ. ± marks the error that the study gave.

| Structure (SMILES) | test | system | conditions | how to read | endpoint | value |
| --- | --- | --- | --- | --- | --- | --- |
| N#Cc1ccc2c(-c3ccncc3)c(-c3ccc(F)cc3)nn2c1 | kinase binding, competitor, MIB/MS competition, item: RIO2 | Candida albicans cell lysate | 100 nM | reference: DMSO | log2 fold change | -0.796 |
| CO[C@H]1CC[C@H](N2C(=O)CNc3ncc(-c4ccc(C(C)(C)O)nc4)nc32)CC1 | flow cytometry | stimulated monocytes, human, blood | 45 mg single dose, 24 h, median | reference: baseline | pAKT change from baseline | -20.4% |
| N#CC[C@H](C1CCCC1)n1cc(-c2ncnc3[nH]ccc23)cn1 | – | Balb/c mice, oxazolone atopic dermatitis | day 8, unit not given | reference: vehicle | ear thickness difference | -0.154 |
| CSCCNc1nc(SCCC(F)(F)F)nc2c1ncn2[C@@H]1O[C@H](COP(=O)(O)OP(=O)(O)C(Cl)(Cl)P(=O)(O)O)[C@@H](O)[C@H]1O | light transmittance aggregometry | human patients, platelet-rich plasma | dose not given, 15 min, together with: ADP 5 µM | – | inhibition of platelet aggregation | 44 ± 20.9% |
| N=C(N)NCCC[C@H](NC(=O)[C@H](CCCNC(=N)N)NC(=O)[C@H](CCCCN)NC(=O)[C@H](CCC(N)=O)NC(=O)[C@H](CCCCN)NC(=O)[C@H](Cc1ccc(O)cc1)NC(=O)[C@@H](N)CCCCN)C(=O)N[C@@H](CO)C(=O)N[C@@H](Cc1ccc(O)cc1)C(=O)N[C@@H](CCCCN)C(=O)O | air evaporative stimulus | dentin hypersensitivity patients | 2.5 µg/tooth single, day 22, phase 1/2a | reference: baseline, direction not given | Schiff sensitivity score change | -0.67 ± 0.82 |
| Cc1n[nH]c2ccc(-c3cc(OC[C@@H](N)Cc4ccccc4)cnc3-c3ccoc3)cc12 | kinase binding, competitor, MIB/MS competition, item: ENV7 | Candida albicans cell lysate | 10 µM | reference: DMSO | log2 fold change | -1.89 |
| O=C(COc1ccc(Cl)cc1)NC12CC(c3nnc([C@H]4C[C@@H](OC(F)(F)F)C4)o3)(C1)C2 | – | healthy human, PBMC | 145 mg once daily, day 14, 4 h post-dose, median, together with: sodium arsenite ex vivo | reference: baseline | ATF4 protein change | -80.8% |
| N#Cc1ccn2c(-c3ccncc3)c(-c3ccc(F)cc3)nc2c1 | kinase binding, competitor, MIB/MS competition, item: HST7 | Candida albicans cell lysate | 100 nM | reference: DMSO | log2 fold change | -0.112 |
| NC(=O)c1cnc2[nH]ccc2c1N[C@@H]1[C@@H]2CC3C[C@H]1C[C@@](O)(C3)C2 | flow cytometry | Japanese healthy men, blood | oral, 10 mg twice daily, 72 h after day 7 dose | reference: baseline | CD8+ central memory change | -0.33% |
| O=C(/C=C/c1ccc(O)c(O)c1/C=C/c1ccc(O)c(O)c1)O[C@H](Cc1ccc(O)c(O)c1)C(=O)O | – | isolated myocardium | 10 µM | – | maximal dP/dt | 1270 mmHg/s |
| COc1ccc(-c2cncc(N[C@@H](C)c3cccc(NC(=O)c4cncc(C)c4)c3)n2)cc1OC | item: rno-miR-185-5p | rat SU5416/hypoxia model, lung | dose not given, unit not given | reference: SU5416/hypoxia vehicle | delta delta Ct | -0.127 |
| CC[C@@H]1[C@H](F)C(=O)N[C@@H]1COc1nccc2cc(C(N)=O)c(OC)cc12 | ATP-site probe binding, ActivX profiling, item: MARK2, MARK3 | THP-1 cell lysate | 0.04 mM, Lys2 site | – | inhibition | -13.3% |
| CC(C)[C@H](C(=O)Nc1ccc(C(=O)NO)cc1)c1ccccc1 | volumetric MRI | human, left foramen magnum tumour | dose not given, day 224 | reference: baseline | tumour volume change | -19.4% |
| CC(C)(C)c1sc2ncnc(Oc3c(F)cccc3OC(F)(F)F)c2c1-c1ccc(Cl)cc1 | antihyperalgesia, paw withdrawal latency | MrgprX1 mice, CCI model | oral | – | ED50 | 8.94 mg/kg |
| COc1cc(F)c([C@@H]2CNC(=O)[C@H]2NC(=O)Nc2ccccc2)c(F)c1 | LV haemodynamics | rat, myocardial ischaemia-reperfusion | 1 mg/kg, 1008 h, 6 weeks post-injury | – | LV dP/dtmin | -6390 ± 1130 mmHg/s |
| CN(C)C(=O)Oc1cccc([N+](C)(C)C)c1 | neuromuscular block reversal | rat | dose not given, 18.5 (unit not given), together with: cisatracurium | reference: T1 twitch | train-of-four ratio | 98 |

| Structure (SMILES) | test | system | conditions | how to read | endpoint | value |
| --- | --- | --- | --- | --- | --- | --- |
| Cn1cc(Nc2nccc(-c3ccc4c(c3)CN(C3COC3)CC[C@H]4NC(=O)c3cn(C(C)(C)C)nn3)n2)cn1 | item: Putrescine Degradation III | splenic B cells, mouse | in vivo, 30 mg/kg, IgD-activated B cells | reference: vehicle, positive = activation | pathway activation z-score | 1.34 |
| OC(CCN1CCCCC1)(c1ccccc1)C1CC2C=CC1C2 (centres unmarked) | resting-state EEG | healthy elderly humans | oral, 2 mg, eyes closed, LS mean | – | EEG theta power, O1 Pz | 10 µV² |
| COc1cc(-c2ccccc2)ncc1C(=O)Nc1ccc2c(=O)[nH]c(-c3ccc(C(C)(C)O)cc3)nc2c1 | RNA-seq GSEA, item: HALLMARK_UNFOLDED_PROTEIN_RESPONSE | organoids, small intestinal, Apc Q1405X, mouse | dose not given, wild-type organoids | reference: DMSO, direction not given | normalized enrichment score | -1 |
| C[C@H]1O[C@@H](O[C@H]2CC[C@@]3(C)[C@@H](CC[C@]4(C)[C@@H]3C=C[C@]35OC[C@@]6(CCC(C)(C)C[C@H]63)[C@@H](O)C[C@]54C)[C@]2(C)CO)[C@H](O)[C@@H](O[C@@H]2O[C@H](CO)[C@@H](O)[C@H](O)[C@H]2O)[C@H]1O | – | Mus musculus, chronic-plus-binge ethanol-fed, liver | oral, 5 mg/kg/day, 168 h, dosed for 7 days | – | hepatic total cholesterol | 0.151 mmol/g protein and 0.149 mmol/g protein and 0.154 mmol/g protein and 0.166 mmol/g protein and 0.173 mmol/g protein |
| C[C@H]1C[C@H]2CSC(N)=N[C@@]2(c2nc(NC(=O)c3ccc(OC(F)F)cn3)cs2)CO1 | item: Aβx-40 | healthy adults, plasma | 400 mg single dose, 6 h post-dose | reference: placebo | percent change from baseline | -58.3% |
| C=CCn1c(=O)c2cnc(Nc3ccc(N4CCN(C)CC4)cc3)nc2n1-c1ccc2c(n1)[C@@](O)(CC)CC2 | – | OVCAR-3 xenograft, NOD/SCID mouse | 60 mg/kg once daily | – | tumour growth inhibition | 71.9% |
| CC(C)C[C@@H](C=O)NC(=O)[C@H](CC(C)C)NC(=O)[C@H](CC(C)C)NC(=O)OCc1ccccc1 | item: Ub(G76V)-GFP | – | 0.01 µM | – | degradation rate constant | 0.0273 min⁻¹ |
| CC(c1cc2ccccc2s1)N(O)C(N)=O (centres unmarked) | item: 12-HETE | human whole blood | 3 µM, together with: Escherichia coli | – | amount | 20200 ± 4420 pg/mL blood |
| C[C@H](Oc1ccc(Br)cc1-c1ccon1)C(=O)O | first response peak | human, tibialis anterior muscle | 200 mg, 30 Hz, single ascending dose | – | difference from placebo | 6.11% |
| O=C(O)CNC(=O)Cc1ccccc1 | – | ventricular cardiomyocytes, C57BL/6 mouse | dose not given, 0.656 s | – | sarcomere length | 1.72 µm |
| COc1cc(Nc2ncc3c(n2)-c2ccc(Cl)cc2C(c2c(F)cccc2OC)=NC3)ccc1C(=O)O | – | mouse, NB-SD neuroblastoma xenograft | 20.8 mg/kg | direction not given | median response score | 4 |
| CC(C)NCC(O)c1ccc(O)c(O)c1 (centres unmarked) | – | ventricular cardiomyocytes, C57BL/6 mouse | dose not given, 0.036 s | – | sarcomere length | 1.72 µm |
| CCCn1cc(C)c2c(=O)[nH]c(-c3cc(S(=O)(=O)N4CCN(CC)CC4)ccc3OCC)nc21 | – | supine | concentration not given, 0 to 4 h | reference: baseline | maximal mean DBP decrease | 7.67 mmHg |
| C[C@@H]1C[C@H]2[C@@H]3CCC4=CC(=O)C=C[C@]4(C)[C@@]3(F)[C@@H](O)C[C@]2(C)[C@@]1(O)C(=O)CO | – | BALB/c mice, oxazolone atopic dermatitis | topical, 20 mg/ear, 480 h, day 20, unit not given | reference: vehicle | ear thickness difference | -0.349 |
| N#Cc1ccc2c(c1)[C@H]1CCCN(C(=O)c3ccc4[nH]cnc4c3)[C@H]1C2 | – | human, Phase II trial | oral, 240 mg once daily, day 28, adjusted mean, SE | – | change, HOMA-beta, from baseline | 0.7% |
| O=C1Nc2cc3[nH]nc(-c4ccncc4)c3cc2CN1Cc1ccccc1 | RECIST v1.1 | human, relapsed or refractory advanced solid tumours | intravenous, 9.6 mg/kg, pooled schedules | – | progressive disease, best response | 78% |

Excerpt of the above:
| Structure (SMILES) | test | system | conditions | how to read | endpoint | value |
| --- | --- | --- | --- | --- | --- | --- |
| N#Cc1ccn2c(-c3ccncc3)c(-c3ccc(F)cc3)nc2c1 | kinase binding, competitor, MIB/MS competition, item: HST7 | Candida albicans cell lysate | 100 nM | reference: DMSO | log2 fold change | -0.112 |
| NC(=O)c1cnc2[nH]ccc2c1N[C@@H]1[C@@H]2CC3C[C@H]1C[C@@](O)(C3)C2 | flow cytometry | Japanese healthy men, blood | oral, 10 mg twice daily, 72 h after day 7 dose | reference: baseline | CD8+ central memory change | -0.33% |
| O=C(/C=C/c1ccc(O)c(O)c1/C=C/c1ccc(O)c(O)c1)O[C@H](Cc1ccc(O)c(O)c1)C(=O)O | – | isolated myocardium | 10 µM | – | maximal dP/dt | 1270 mmHg/s |
| COc1ccc(-c2cncc(N[C@@H](C)c3cccc(NC(=O)c4cncc(C)c4)c3)n2)cc1OC | item: rno-miR-185-5p | rat SU5416/hypoxia model, lung | dose not given, unit not given | reference: SU5416/hypoxia vehicle | delta delta Ct | -0.127 |
| CC[C@@H]1[C@H](F)C(=O)N[C@@H]1COc1nccc2cc(C(N)=O)c(OC)cc12 | ATP-site probe binding, ActivX profiling, item: MARK2, MARK3 | THP-1 cell lysate | 0.04 mM, Lys2 site | – | inhibition | -13.3% |
